# Experimental data collected from several papers.
# Each numbered part is a random draw from the data of one study; scales do not carry over between parts.
# Sequence of UniProt P49759 (whole entry, looked up): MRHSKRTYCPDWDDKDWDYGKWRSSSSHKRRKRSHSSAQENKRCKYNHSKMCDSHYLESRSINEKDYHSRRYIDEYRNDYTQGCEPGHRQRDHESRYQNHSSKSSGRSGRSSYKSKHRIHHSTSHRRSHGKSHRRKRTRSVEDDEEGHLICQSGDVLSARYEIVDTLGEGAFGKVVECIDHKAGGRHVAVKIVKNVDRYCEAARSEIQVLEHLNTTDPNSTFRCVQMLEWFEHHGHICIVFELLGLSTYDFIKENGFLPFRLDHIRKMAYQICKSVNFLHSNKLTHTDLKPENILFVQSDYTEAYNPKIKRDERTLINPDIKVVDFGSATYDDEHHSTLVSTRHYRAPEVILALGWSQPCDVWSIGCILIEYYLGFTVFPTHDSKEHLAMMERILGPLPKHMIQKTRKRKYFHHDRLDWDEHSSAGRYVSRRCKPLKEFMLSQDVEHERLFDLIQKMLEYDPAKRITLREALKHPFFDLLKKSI
# Sequence of UniProt Q15375 (whole entry, looked up): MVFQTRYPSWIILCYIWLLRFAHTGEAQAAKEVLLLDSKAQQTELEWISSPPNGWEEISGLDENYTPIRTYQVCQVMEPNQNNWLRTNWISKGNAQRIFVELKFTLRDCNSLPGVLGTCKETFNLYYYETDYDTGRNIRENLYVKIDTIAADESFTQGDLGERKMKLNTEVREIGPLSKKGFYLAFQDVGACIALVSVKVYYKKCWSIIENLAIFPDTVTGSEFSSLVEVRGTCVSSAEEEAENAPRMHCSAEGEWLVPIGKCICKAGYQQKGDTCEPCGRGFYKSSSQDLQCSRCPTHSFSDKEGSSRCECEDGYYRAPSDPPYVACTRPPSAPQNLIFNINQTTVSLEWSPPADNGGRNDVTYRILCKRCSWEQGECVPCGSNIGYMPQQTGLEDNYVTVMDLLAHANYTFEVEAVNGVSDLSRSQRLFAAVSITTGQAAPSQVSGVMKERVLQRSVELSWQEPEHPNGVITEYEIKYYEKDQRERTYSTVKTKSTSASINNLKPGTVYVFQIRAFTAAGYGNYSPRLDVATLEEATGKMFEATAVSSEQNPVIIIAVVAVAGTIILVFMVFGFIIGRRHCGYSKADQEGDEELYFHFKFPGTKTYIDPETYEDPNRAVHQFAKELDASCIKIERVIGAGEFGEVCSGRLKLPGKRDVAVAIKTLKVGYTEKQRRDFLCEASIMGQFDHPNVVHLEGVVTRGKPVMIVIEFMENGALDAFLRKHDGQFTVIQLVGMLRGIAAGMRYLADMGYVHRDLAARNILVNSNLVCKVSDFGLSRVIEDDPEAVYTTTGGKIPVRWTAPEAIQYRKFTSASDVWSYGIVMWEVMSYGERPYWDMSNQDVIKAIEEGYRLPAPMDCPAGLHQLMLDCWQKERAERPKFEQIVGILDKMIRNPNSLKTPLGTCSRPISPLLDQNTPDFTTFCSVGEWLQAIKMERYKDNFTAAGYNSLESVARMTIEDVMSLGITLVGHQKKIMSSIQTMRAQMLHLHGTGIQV
# Sequence of UniProt Q9P0L2 (whole entry, looked up): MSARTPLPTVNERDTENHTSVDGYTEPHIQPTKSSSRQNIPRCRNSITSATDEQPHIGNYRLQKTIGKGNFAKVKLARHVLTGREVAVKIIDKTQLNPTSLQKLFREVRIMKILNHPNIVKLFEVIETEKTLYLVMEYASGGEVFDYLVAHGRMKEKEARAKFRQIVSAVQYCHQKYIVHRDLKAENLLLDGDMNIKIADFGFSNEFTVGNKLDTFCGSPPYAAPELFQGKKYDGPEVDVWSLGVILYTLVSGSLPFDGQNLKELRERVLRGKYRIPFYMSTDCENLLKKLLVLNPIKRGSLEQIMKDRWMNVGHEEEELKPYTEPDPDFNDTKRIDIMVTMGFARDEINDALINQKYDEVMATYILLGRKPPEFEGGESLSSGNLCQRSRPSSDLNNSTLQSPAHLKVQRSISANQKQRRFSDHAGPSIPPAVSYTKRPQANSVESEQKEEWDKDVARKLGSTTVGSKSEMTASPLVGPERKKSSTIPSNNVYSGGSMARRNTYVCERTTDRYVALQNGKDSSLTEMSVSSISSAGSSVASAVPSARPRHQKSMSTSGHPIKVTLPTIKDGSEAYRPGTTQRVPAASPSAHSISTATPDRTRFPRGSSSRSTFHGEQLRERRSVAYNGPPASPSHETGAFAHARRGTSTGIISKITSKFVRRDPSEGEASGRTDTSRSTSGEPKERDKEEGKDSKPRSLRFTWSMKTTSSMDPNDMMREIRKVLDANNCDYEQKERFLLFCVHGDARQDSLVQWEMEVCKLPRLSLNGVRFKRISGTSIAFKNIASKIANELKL
# Sequence of UniProt Q9FX25 (whole entry, looked up): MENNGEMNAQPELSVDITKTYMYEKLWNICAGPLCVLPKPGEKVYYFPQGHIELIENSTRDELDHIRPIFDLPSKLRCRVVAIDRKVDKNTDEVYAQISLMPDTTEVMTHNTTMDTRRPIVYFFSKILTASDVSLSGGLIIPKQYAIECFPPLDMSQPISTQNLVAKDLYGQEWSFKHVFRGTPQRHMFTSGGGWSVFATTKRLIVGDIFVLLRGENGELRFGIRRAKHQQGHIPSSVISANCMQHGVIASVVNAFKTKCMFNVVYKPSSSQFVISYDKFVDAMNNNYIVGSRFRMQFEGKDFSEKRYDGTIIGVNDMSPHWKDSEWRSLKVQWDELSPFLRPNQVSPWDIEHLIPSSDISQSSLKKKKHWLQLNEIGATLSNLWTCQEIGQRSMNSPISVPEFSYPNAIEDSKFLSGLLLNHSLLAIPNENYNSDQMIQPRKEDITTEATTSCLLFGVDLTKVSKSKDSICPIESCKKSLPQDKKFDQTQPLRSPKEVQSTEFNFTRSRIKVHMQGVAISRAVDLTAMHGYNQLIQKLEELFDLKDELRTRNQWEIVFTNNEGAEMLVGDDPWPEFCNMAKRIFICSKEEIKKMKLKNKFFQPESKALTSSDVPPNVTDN
# Sequence of UniProt Q38829 (whole entry, looked up): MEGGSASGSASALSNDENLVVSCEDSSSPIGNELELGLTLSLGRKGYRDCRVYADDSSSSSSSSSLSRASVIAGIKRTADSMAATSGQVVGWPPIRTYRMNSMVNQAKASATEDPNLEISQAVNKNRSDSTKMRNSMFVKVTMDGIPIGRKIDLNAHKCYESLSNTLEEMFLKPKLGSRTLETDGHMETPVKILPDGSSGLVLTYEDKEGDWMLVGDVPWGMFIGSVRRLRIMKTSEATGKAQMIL
# Sequence of UniProt Q9ZSY8 (whole entry, looked up): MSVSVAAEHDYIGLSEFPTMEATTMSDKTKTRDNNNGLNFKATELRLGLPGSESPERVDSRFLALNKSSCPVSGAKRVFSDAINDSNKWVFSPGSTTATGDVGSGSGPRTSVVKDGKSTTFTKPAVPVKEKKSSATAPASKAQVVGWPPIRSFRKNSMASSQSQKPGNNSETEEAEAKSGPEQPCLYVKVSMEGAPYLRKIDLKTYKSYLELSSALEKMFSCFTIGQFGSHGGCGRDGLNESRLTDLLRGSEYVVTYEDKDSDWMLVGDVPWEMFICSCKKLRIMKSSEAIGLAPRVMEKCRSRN
# Sequence of UniProt Q8RYC8 (whole entry, looked up): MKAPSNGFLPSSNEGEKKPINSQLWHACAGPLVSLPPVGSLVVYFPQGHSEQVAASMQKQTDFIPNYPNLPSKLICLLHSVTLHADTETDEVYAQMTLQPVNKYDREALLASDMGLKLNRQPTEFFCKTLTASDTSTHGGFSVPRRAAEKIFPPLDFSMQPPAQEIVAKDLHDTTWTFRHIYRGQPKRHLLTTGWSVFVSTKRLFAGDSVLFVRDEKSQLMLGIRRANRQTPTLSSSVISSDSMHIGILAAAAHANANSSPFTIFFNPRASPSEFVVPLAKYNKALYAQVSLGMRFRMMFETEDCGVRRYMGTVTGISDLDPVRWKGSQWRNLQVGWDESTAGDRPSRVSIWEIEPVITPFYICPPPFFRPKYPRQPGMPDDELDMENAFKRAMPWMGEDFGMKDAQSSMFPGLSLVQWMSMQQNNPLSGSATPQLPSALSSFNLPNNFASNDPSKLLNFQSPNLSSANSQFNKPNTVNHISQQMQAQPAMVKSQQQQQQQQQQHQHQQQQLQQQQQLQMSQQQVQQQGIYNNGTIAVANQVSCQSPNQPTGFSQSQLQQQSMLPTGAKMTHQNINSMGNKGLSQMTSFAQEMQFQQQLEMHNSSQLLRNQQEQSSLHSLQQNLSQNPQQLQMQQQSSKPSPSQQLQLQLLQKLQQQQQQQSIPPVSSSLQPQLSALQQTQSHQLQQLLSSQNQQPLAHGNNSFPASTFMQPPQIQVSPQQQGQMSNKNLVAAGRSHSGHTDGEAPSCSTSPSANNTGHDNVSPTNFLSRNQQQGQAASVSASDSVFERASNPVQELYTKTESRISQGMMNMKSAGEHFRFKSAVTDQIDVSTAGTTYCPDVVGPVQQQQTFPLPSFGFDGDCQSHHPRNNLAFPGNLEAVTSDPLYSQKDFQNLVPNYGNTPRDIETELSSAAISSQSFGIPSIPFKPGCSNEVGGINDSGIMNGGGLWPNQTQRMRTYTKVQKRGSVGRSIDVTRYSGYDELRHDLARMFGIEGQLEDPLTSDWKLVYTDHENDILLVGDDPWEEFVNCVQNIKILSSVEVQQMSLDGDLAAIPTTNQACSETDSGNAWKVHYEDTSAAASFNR
# Sequence of UniProt Q9FKM7 (whole entry, looked up): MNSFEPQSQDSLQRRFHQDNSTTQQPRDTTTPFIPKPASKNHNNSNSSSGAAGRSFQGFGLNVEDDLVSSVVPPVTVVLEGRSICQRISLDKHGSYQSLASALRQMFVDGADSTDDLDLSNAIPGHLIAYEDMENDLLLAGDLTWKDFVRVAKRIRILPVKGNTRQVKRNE
# Sequence of UniProt Q9XFM0 (whole entry, looked up): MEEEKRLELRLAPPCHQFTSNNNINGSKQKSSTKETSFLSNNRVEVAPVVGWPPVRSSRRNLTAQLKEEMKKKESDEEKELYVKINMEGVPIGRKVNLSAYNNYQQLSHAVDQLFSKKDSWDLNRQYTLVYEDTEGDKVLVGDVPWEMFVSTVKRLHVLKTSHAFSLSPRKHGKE

# Study 1 — Molecule: B1 (IAA1); method: two-hybrid; direction: higher = firmer interaction
# B1: IAA1 (Arabidopsis thaliana, UniProt P49677); chain MEVTNGLNLKDTELRLGLPGAQEEQQLELSCVRSNNKRKNNDSTEESAPPPAKTQIVGWPPVRSNRKNNNNKNVSYVKVSMDGAPYLRKIDLKMYKNYPELLKALENMFKFTVGEYSEREGYKGSGFVPTYEDKDGDWMLVGDVPWDMFSSSCQKLRIMKGSEAPTAL
partner,conditions,how to read,positive tests
"IAA3 (Arabidopsis thaliana, UniProt Q38822)",,relative to: out of 4 tests,4
"ARF19 948-1086 (Arabidopsis thaliana, UniProt Q8RYC8)",,relative to: out of 4 tests,4
"IAA27 (Arabidopsis thaliana, UniProt Q9ZSY8)",,relative to: out of 2 tests,2
"IAA11 (Arabidopsis thaliana, UniProt Q38829)",weak activation fusion,relative to: out of 2 tests,0
"IAA2 (Arabidopsis thaliana, UniProt P49678)",,relative to: out of 4 tests,3
"IAA33 (Arabidopsis thaliana, UniProt Q9FKM7)",,relative to: out of 4 tests,0
"IAA28 (Arabidopsis thaliana, UniProt Q9XFM0)",,relative to: out of 4 tests,4
"ARF13 (Arabidopsis thaliana, UniProt Q9FX25)",,relative to: out of 4 tests,0

# Study 2 — method: universal PBM; form: double-stranded DNA, one strand shown; matrix: in vitro; tested at: not given; direction: higher = stronger binding
# Target: Sal-like protein 4, full length isoform B (SALL4, Homo sapiens, UniProt Q9UJQ4-2, residues 1-616)
# Notes: 8-mer, flanks averaged, mean of replicates
# Residues (chain): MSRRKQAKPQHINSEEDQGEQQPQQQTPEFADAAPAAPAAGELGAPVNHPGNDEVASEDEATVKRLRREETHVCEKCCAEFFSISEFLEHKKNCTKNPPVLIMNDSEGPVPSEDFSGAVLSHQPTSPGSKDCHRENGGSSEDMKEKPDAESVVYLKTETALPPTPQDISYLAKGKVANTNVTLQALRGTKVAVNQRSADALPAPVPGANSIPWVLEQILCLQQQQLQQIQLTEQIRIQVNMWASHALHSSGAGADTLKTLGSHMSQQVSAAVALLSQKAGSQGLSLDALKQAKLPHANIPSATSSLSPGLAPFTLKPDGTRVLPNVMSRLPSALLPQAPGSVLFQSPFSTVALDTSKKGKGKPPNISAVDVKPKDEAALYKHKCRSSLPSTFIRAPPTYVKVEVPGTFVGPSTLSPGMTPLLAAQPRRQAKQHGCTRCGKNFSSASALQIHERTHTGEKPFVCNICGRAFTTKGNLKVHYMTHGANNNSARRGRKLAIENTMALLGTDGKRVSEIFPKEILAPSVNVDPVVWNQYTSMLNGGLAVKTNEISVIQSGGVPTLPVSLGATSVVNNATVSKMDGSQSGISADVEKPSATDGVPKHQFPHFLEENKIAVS
Strand,E-score
GCAACAAA,0.183
CATTAGTC,0.015
ATGCTTTG,0.103
ATCCTGGG,-0.223
GAGACGAC,-0.251
CCCGCCTC,-0.35
CTTATACA,0.236
ACGCACCC,-0.255

# Study 3 — method: aptamer microarray, sandwich; form: DNA with 2'F-ANA; matrix: in vitro; tested at: 200 nM; with: Cy3 exosite-II aptamer, 400 nM; direction: higher = stronger binding; strand: GGTTGGTGTGGTTGG
# Target: Prothrombin, mature alpha-thrombin (F2, Homo sapiens, UniProt P00734)
# Notes: whole 15-mer aptamer, many near background
Modification,mean fluorescence intensity [a.u.]
2'F-ANA at 1 5 6 8 9 14,59.5
2'F-ANA at 1 4 6 10 11 13 15,47.2
2'F-ANA at 2 4 5 6 9 10 12 14,46
2'F-ANA at 2 3 4 6 7 9 10 11 13 14 15,148
2'F-ANA at 2 3 5 8 10 14,49.9
2'F-ANA at 2 3 4 5 8 10 12 14,48.8
2'F-ANA at 3 4 5 7 8 10 12 15,72.5
2'F-ANA at 3 5 7 9 13,81.5

# Single results of other studies — read-out: cell-free assay; method: competition with immobilised ligand; tested at: 1 µM
Compound,target,remaining binding
COc1ccc2cc(OCC3(C(=O)O)CN(C(=O)c4ccc(F)cc4)C3)ccc2c1,"CLK1 (Homo sapiens, UniProt P49759)",79%
CCCOc1ccc([C@H]2[C@H](C(=O)O)[C@@H](c3ccc4c(c3)OCO4)CN2CC(=O)Nc2c(CC)cccc2CC)cc1,"MARK1 (Homo sapiens, UniProt Q9P0L2)",100%
Nc1cnc(N2CCc3cc(S(=O)(=O)Nc4c(F)cc(Cl)cc4F)cc(N4CCCC4=O)c32)nc1,"EPHA7 (Homo sapiens, UniProt Q15375)",85%

# For quick reference, copied from above (study 3):
Modification,mean fluorescence intensity [a.u.]
2'F-ANA at 2 3 4 5 8 10 12 14,48.8
2'F-ANA at 3 4 5 7 8 10 12 15,72.5
2'F-ANA at 3 5 7 9 13,81.5
